Published values gathered from unrelated publications.
Protocols differ between the studies behind these lines. ± gives the spread as reported.
HTR1B: 5-hydroxytryptamine receptor 1B (HTR1B, Homo sapiens, UniProt P28222)
SIRT3: NAD-dependent protein deacetylase sirtuin-3, mitochondrial (SIRT3, Homo sapiens, UniProt Q9NTG7)

SMILES | target or system | test | system | setting | how to read | measurement | result
CC1Cc2ccccc2N1C(=O)CN1CCN(c2ccccc2)CC1 (stereo not drawn) | HTR1B | radioligand binding | – | concentration not given, together with: [3H]5-CT | – | inhibition | -2.1%
COC1CN([C@H]2CC[C@H]([C@@]3(C)Oc4c(Cl)cc(C(=O)NCc5c(SC)cc(C)[nH]c5=O)c(C)c4O3)CC2)C1 | – | RNA-seq, measured: SLC41A2 mouse homolog | mouse, HT-1376 xenograft, whole blood | dose not given | reference: vehicle | log2 fold change | 0.526
C=CC(=O)Nc1cccc(Cn2ncc3cnc(Nc4cnn(CCOC)c4)nc32)c1 | NEK11 human | binding, KINOMEscan | – | 100 nM | lower = stronger binding | percent of control | 96%
CCCCCCCCCCCCCC(=S)NCCCC[C@H](NS(C)(=O)=O)C(=O)N[C@H](C)C(=O)N[C@@H](CCCNC(=N)N)C(N)=O | SIRT3 | enzyme activity, inhibitor | – | 10 µM | – | inhibition | 31%
CC(C)C[C@H](NC(=O)[C@@H](CCCCNC(=O)CCCCCCCCCCNC(=O)CN1CCN(CC(=O)O)CCN(CC(=O)O)CCN(CC(=O)O)CC1)NC(=O)[C@H](Cc1ccc(O)cc1)NC(=O)[C@H](CO)NC(=O)[C@H](Cc1c[nH]c2ccccc12)NC(=O)[C@H](Cc1cnc[nH]1)NC(=O)[C@@H]1CCC(=O)N1)C(=O)N[C@@H](CCCN=C(N)N)C(=O)N1CCC[C@H]1C(=O)NCC(N)=O [indium-111 labelled] | – | – | athymic nude mouse, female, intestines | intravenous, 0.037 MBq, 2 h | – | tissue uptake | 3.46 ± 4.2 %ID
Cc1ccc(-c2nn(-c3ccc(S(C)(=O)=O)cc3)cc2/C=N/N=C2/NC(=O)CS2)cc1 | EGFR (Homo sapiens, UniProt P00533) | kinase activity, inhibitor | – | 10 µM | – | inhibition | 83.8%
CN(Cc1ccc(/C=C/C(=O)NO)cc1)CC12CC3CC(CC(C3)C1)C2 | human 5-HT2A receptor | antagonist radioligand binding | – | 0.05 µM | – | inhibition | -2%
C#CC(=O)Nc1ccc2nc(NCCCCCN(C)C)nc(NCCCCCCN(C)C)c2c1 | Histone-lysine N-methyltransferase SETDB1, triple Tudor domain (SETDB1, Homo sapiens, UniProt Q15047) | – | – | 33.33 µM | – | inhibition | 71.7%
O=C1CC(c2ccccc2)Oc2c(Br)c(O)c(Br)c(O)c21 (stereo not drawn) | AMY2 (Sus scrofa, UniProt P00690) | enzyme activity, inhibitor | – | 50 µM, together with: CNP-G3 substrate | – | inhibition | 51.1 ± 1.02%
C[Si](C)(C)C[C@H](CN)CC(=O)O | kainate receptor, rat | binding, radioligand binding | – | 250 µM, together with: [3H]kainic acid | – | inhibition | -1%
Cc1ccc(CNC(=O)[C@H](CCc2ccccc2)NC(=O)[C@H](CCc2ccccc2)NC(=O)Cc2cccc(Oc3ccccc3)c2)cc1 | Prothrombin (F2, Homo sapiens, UniProt P00734) | enzyme activity, inhibitor | – | 100 µM | – | inhibition | 12%
C=C(NC(=O)c1csc(-c2nc3c(cc2O)-c2nc(cs2)C(=O)NC(C(C)O)C(=O)NC(=C(C)OC)c2nc(cs2)C(=O)NC2c4nc(cs4)C(=O)NC(COC(=O)c4c5c6c(cccc6n4O)COC(=O)C(OC4CC(C)(O)C(N(C)C)C(C)O4)C2OC5)c2nc-3cs2)n1)C(N)=O (stereo not drawn) | – | – | female cynomolgus monkey, plasma | intravenous, 9 mg/kg, single dose, infusion | – | Cmax | 36100 ng/mL
CN(C)C/C=C/C(=O)Nc1ccc2nc(NCCCCCN(C)C)nc(NCCCCCCN(C)C)c2c1 | EHMT2 (Homo sapiens, UniProt Q96KQ7) | enzyme activity, inhibitor, radiometric | – | 10 µM | – | inhibition | 63%
CC(CC(=O)O)c1n[nH]c2nc(N)[nH]c(=O)c2c1=O (stereo not drawn) | folP (Bacteria, UniProt P0AC13) | CETSA HiBiT | Escherichia coli, whole cells | – | – | melting temperature | 56.5 °C
CC(=O)[C@]12NC(C)(C)C[C@@]1(C)C(=O)C1=C2c2c(c3c4n2C(C)(C)CC2=C4[C@@]4(CC(C)(C)N[C@@](C)(C4)C2=O)CC3(C)C)C(=O)C(C)(C)N1 (racemic) | KCNQ3 (Homo sapiens, UniProt O43525) | ion current, inhibitor, patch clamp | HEK-293T | 40 µM | – | inhibition | 1%
C=CCNC(=O)[C@H](CCc1ccccc1)NC(=O)[C@H](CC(=O)NCC(C)(C)C)NC(=O)CCc1ccccc1 | chymotrypsin | enzyme activity, inhibitor | – | 100 µM | – | inhibition | -4%
CC[C@H](C)[C@H](NC(=O)[C@@H](NC(=O)[C@H](Cc1c[nH]c2ccccc12)NC(=O)[C@H](CO)NC(=O)[C@H](Cc1c[nH]c2ccccc12)NC(=O)[C@H](CO)NC(=O)[C@H](CCC(=O)O)NC(C)=O)[C@@H](C)CC)C(N)=O | Programmed cell death 1 ligand 1, with PD-1 (CD274, Homo sapiens, UniProt Q9NZQ7) | PD-1/PD-L1 binding, ELISA | – | 10 µM | – | inhibition | 24 ± 3.4%
Nc1ncc(-c2cc(-c3cnn(CC(F)(F)F)c3)ncc2F)nc1C(=O)NC1CNCC(F)C1 (stereo not drawn) | FGR | KINOMEscan | – | 1 µM | reference: DMSO control | remaining binding | 86%
C[C@@H](O)[C@H](NC(=O)c1ccc(OCc2ccccc2)cc1)C(=O)N[C@@H](CCc1ccccc1)C(=O)NCc1ccccc1Cl | trypsin | enzyme activity, inhibitor | – | 100 µM | – | inhibition | 1%
O=C1CO[C@H](CNC(=O)C2(c3ccc(Cl)cc3)CC2)CN1C1Cc2ccccc2C1 | CXCR4 (Homo sapiens, UniProt P61073) | β-arrestin recruitment, antagonist | – | 1 µM | – | inhibition | 2%
O=C1c2sc(-c3ccc(N4CCC(CO)CC4)nc3F)nc2CCN1c1cccnc1 | HTR1B | ligand displacement, radioligand | – | 1 µM | – | inhibition | 4%
Cc1nc(-c2c[nH]c(C(=O)Nc3ncccc3O)c2)cs1 | Trypsin-3 (Homo sapiens, UniProt P35030, H275D) | enzyme activity, inhibitor, mixed model kinetics | – | – | – | Ki | 53.9 µM
C[Si]1(C[C@H](CN)CC(=O)O)CCCC1 | SSTR3 (Homo sapiens, UniProt P32745) | ligand displacement, radioligand | – | 70 µM | – | inhibition | -2%
Cc1ncsc1-c1ccc(C(C)NC(=O)C2CC(O)CN2C(=O)C(NC(=O)CCCCCCCCCCN2CCCC(Nc3ncc(Cl)c(Nc4ccccc4S(=O)(=O)C(C)C)n3)C2)C(C)(C)C)cc1 (stereo not drawn) | 22Rv1 | RNA-seq, measured: VIL1 mRNA | – | concentration not given | reference: DMSO | log2 fold change | -1.84
CCCCCCCCCCCCNC(=S)NCCCC[C@H](NC(=O)OCc1ccccc1)C(=O)N[C@H](C)C(=O)N[C@@H](CCCNC(=N)N)C(N)=O | SIRT3 | enzyme activity, inhibitor | – | 10 µM | – | inhibition | 11%
CC(C)OCCOCc1ccc(OCC(O)CN(N=O)C(C)C)cc1 (stereo not drawn) | Salmonella typhimurium | Ames test | TA98 | 5 µg/plate, 30 % hamster S9 | reference: solvent control | revertant fold increase | 1 fold
O=C(Nc1ccccc1)Nc1cccc(-c2ccccc2)c1 | SRPK3 (Homo sapiens, UniProt Q9UPE1) | binding, KINOMEscan competitive binding | – | concentration not given | – | inhibition | 34%

Repeated from above:
SMILES | target or system | test | system | setting | how to read | measurement | result
COC1CN([C@H]2CC[C@H]([C@@]3(C)Oc4c(Cl)cc(C(=O)NCc5c(SC)cc(C)[nH]c5=O)c(C)c4O3)CC2)C1 | – | RNA-seq, measured: SLC41A2 mouse homolog | mouse, HT-1376 xenograft, whole blood | dose not given | reference: vehicle | log2 fold change | 0.526
C[Si]1(C[C@H](CN)CC(=O)O)CCCC1 | SSTR3 (Homo sapiens, UniProt P32745) | ligand displacement, radioligand | – | 70 µM | – | inhibition | -2%
C[Si](C)(C)C[C@H](CN)CC(=O)O | kainate receptor, rat | binding, radioligand binding | – | 250 µM, together with: [3H]kainic acid | – | inhibition | -1%
Cc1nc(-c2c[nH]c(C(=O)Nc3ncccc3O)c2)cs1 | Trypsin-3 (Homo sapiens, UniProt P35030, H275D) | enzyme activity, inhibitor, mixed model kinetics | – | – | – | Ki | 53.9 µM
